Measurements from different studies.
A part holds a random share of what one study measured.

Block 1 — effect on: binding; method: radioligand binding; tested at: 10 µM; quantity: inhibition
Target: D(3) dopamine receptor (DRD3, Homo sapiens, UniProt P35462)
Chain of UniProt P35462 (whole entry, looked up): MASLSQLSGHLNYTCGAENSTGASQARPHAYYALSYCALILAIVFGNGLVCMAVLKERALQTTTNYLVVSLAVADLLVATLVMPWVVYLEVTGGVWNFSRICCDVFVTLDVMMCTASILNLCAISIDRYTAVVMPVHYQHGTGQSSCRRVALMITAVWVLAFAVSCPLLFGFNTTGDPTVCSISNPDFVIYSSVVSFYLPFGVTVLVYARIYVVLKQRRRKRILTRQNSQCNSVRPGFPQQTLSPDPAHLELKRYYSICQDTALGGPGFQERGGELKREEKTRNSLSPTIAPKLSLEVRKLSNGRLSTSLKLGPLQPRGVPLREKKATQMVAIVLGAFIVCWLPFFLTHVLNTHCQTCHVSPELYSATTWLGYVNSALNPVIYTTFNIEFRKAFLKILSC
SMILES = O=C(Nc1cnc(Oc2ccc(F)cc2)nc1)N1CCc2ncccc2[C@@H]1c1ccc(F)cc1; value = -4.36%
SMILES = O[C@]1(C(F)(F)F)CCCC[C@H]1Nc1ccc(F)cc1; value = -6.61%
SMILES = CCOCCn1cc(C(=O)Nc2ccc(-n3nc(-c4cccnc4)cc3C(F)(F)F)cn2)ccc1=O; value = -13.1%
SMILES = COCc1nc2cnc3cc(-c4c(C)noc4C)c(OC[C@H]4CCNC4)cc3c2n1[C@H](C)c1ccccc1; value = 62.4%
SMILES = CN([C@@H]1CCc2c(CC(=O)O)c3cc(S(C)(=O)=O)ccc3n2C1)S(=O)(=O)c1ccc(F)cc1; value = -5.72%
SMILES = COc1cccc(CNC(=O)c2nc3scc(COCc4ccc(C(=O)O)cc4)c3c(=O)[nH]2)c1; value = 10.5%
SMILES = C[C@H](NC(=O)c1cnc2n1[C@](C)(Cc1ccc(C#N)cc1)C(=O)N2c1cc(Cl)c(F)c(Cl)c1)C(=O)NC1(c2ccccn2)CC1; value = -3.54%
SMILES = Cc1c(NC(=O)c2cc(C(N)=O)nc3cc(F)ccc23)c(C(F)(F)F)nn1Cc1ccc(C(C)(C)C)cc1; value = 11.9%
SMILES = O=C(Nc1cccnn1)N1CC(CC=Cc2cncc(Oc3ccc(C(F)(F)F)cn3)n2)C1; value = -9.59%
SMILES = CC(C)(O)c1cncc(-c2nc3ccc(F)cc3n2C2CC2)c1; value = -6.18%
SMILES = O=C1c2ccc(Nc3ccc(F)cc3F)cc2CCc2ccc(OC[C@H](O)CO)cc21; value = -7.71%
SMILES = CC(=O)Nc1nc(CN2CCC[C@H](Cc3cc(C)nc(C)c3)C2)cs1; value = -11.4%
SMILES = Cc1nc(N2CC[C@@H](O)C2)ncc1-c1cc(C(F)(F)F)cc2[nH]ncc12; value = -16.3%
SMILES = C[C@@]1(Cc2ccc(C#N)cc2)C(=O)N(c2cc(Cl)cc(Cl)c2)c2ncc(C(=O)NC3(c4nc(C5CCC5)no4)CC3)n21; value = 9.55%
SMILES = COc1cc(-c2cn(C3CCc4ccccc4N(CC(F)(F)F)C3=O)nn2)ccc1-n1ccc(C)n1 (centres unmarked); value = 22%
SMILES = COCCc1ccc(-c2c(C)nc3c(N4CCOCC4)ccnn23)cn1; value = 24.1%
SMILES = O=C(O)c1cc(-c2ccc(C3CCNCC3)cc2)c2ccc(-c3ccc(C(F)(F)F)cc3)cc2c1; value = 65.6%
SMILES = Cc1c[nH]c2nccc(Oc3c(F)cc(Nc4cc(Cl)nc(N)n4)cc3F)c12; value = -5.8%
SMILES = CNC(=O)c1ccc(Nc2ncc(C(F)(F)F)c(NCc3nccnc3N(C)S(C)(=O)=O)n2)cc1; value = 11.3%
SMILES = O=C(Nc1ccc(-n2nc(-c3cccnc3)cc2C(F)(F)F)cn1)c1ccc(-c2ccccc2)c(F)c1; value = 8.38%
SMILES = CN(C)C(=O)Cn1cc(-c2nc([C@@](C)(c3ccc(-c4cnc(N)nc4)cc3)C3CC3)no2)cn1; value = -5.98%

Block 2 — organism: Plasmodium berghei; mode: inhibitor; cells: Huh-7; strain: GFP-expressing, liver stage; tested at: 10 µM; time: 24 h; relative to: untreated control; quantity: infection rate
Compound = CC(C)c1nc(N(C)S(C)(=O)=O)nc(-c2ccc(F)cc2)c1/C=C/[C@@H](O)C[C@@H](O)CC(=O)O; value = 131%
Compound = CCCCCCCCCCC[C@@H](C[C@@H]1OC(=O)[C@H]1CCCCCC)OC(=O)[C@H](CC(C)C)NC=O; value = 43.6%
Compound = Nc1ccc(/N=N/c2ccccc2)c(N)n1; value = 274%
Compound = Nc1ccc(S(=O)(=O)NC(=O)c2ccccc2)cc1; value = 95.2%
Compound = O=C1C(CC[S+]([O-])c2ccccc2)C(=O)N(c2ccccc2)N1c1ccccc1 (centres unmarked); value = 117%
Compound = C#C[C@]1(OC(C)=O)CC[C@H]2[C@@H]3CCC4=CC(=O)CC[C@@H]4[C@H]3CC[C@@]21C; value = 79.8%
Compound = NC(=O)C1(N2CCCCC2)CCN(CCCC(=O)c2ccc(F)cc2)CC1; value = 96.4%
Compound = COc1ccc(CN(CCN(C)C)c2ccccn2)cc1; value = 119%
Compound = Cc1onc(-c2ccccc2)c1-c1ccc(S(N)(=O)=O)cc1; value = 92.1%
Compound = CCc1nc(N)nc(N)c1-c1ccc(Cl)cc1; value = 90%
Compound = O=C1CCC(N2C(=O)c3ccccc3C2=O)C(=O)N1 (centres unmarked); value = 90.5%
Compound = Nc1nc2[nH]cnc2c(=S)[nH]1; value = 36.6%
Compound = CN1C(C(=O)Nc2ccccn2)=C(O)c2ccccc2S1(=O)=O; value = 111%
Compound = COC(=O)[C@H]1[C@H]2C[C@@H]3c4[nH]c5cc(OC)ccc5c4CCN3C[C@H]2C[C@@H](OC(=O)c2cc(OC)c(OC)c(OC)c2)[C@@H]1OC; value = 19.6%
Compound = CCCN1C[C@H](CSC)C[C@@H]2c3cccc4[nH]cc(c34)C[C@H]21; value = 102%
Compound = CCn1cc(C(=O)O)c(=O)c2cc3c(cc21)OCO3; value = 76.9%
Compound = O=C(O[C@H]1CN2CCC1CC2)N1CCc2ccccc2[C@@H]1c1ccccc1; value = 85.7%
Compound = CC(=O)Nc1ccc(OCC(O)CNC(C)C)cc1 (centres unmarked); value = 107%
Compound = CC(=O)N(c1onc(C)c1C)S(=O)(=O)c1ccc(N)cc1; value = 112%

Block 3 — effect on: enzyme activity; mode: inhibitor; tested at: 0.5 µM; relative to: control; quantity: remaining activity
Target: Mitogen-activated protein kinase kinase kinase 7 (MAP3K7, Homo sapiens, UniProt O43318)
Chain of UniProt O43318 (whole entry, looked up): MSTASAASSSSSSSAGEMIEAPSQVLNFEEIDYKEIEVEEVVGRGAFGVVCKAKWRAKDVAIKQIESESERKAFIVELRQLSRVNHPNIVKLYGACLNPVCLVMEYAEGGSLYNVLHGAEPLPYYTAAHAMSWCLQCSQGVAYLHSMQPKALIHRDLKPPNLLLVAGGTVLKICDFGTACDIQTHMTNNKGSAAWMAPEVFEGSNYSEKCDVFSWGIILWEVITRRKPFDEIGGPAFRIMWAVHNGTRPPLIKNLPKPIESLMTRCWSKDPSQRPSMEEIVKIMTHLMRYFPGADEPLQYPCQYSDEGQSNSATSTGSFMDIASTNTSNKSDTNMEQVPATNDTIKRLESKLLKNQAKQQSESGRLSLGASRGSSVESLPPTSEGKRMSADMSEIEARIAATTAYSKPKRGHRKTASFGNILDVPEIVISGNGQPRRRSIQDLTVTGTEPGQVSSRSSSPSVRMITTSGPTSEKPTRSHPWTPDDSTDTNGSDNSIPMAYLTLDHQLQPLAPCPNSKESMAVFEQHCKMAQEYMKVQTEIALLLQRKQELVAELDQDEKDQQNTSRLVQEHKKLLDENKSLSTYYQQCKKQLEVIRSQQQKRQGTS
Structure (SMILES) = O=C1NC(=O)/C(=C/c2ccc3nccnc3c2)S1; value = 98.7%
Structure (SMILES) = COc1cc2ncc(-c3ccccc3)nc2cc1OC; value = 92.8%
Structure (SMILES) = Cc1ccc(NC(=O)c2ccc(CN3CCN(C)CC3)cc2)cc1Nc1nccc(-c2cccnc2)n1; value = 111%
Structure (SMILES) = O=C(Nc1ccc(Cl)cc1)c1ccccc1NCc1ccncc1; value = 98.1%
Structure (SMILES) = CCN1/C(=C/C(C)=O)Sc2ccc(OC)cc21; value = 99.9%
Structure (SMILES) = Nc1[nH]nc2nnc(-c3c(-c4ccccc4)nn4ccccc34)cc12; value = 101%
Structure (SMILES) = Cn1cnc2cc3c(Nc4cccc(Br)c4)ncnc3cc21; value = 98.6%
Structure (SMILES) = CCC(=O)Nc1ccc2ncnc(Nc3cccc(Br)c3)c2c1; value = 94%
Structure (SMILES) = CC(=O)O/N=C1/C(c2c(O)[nH]c3cc(Br)ccc23)=Nc2ccccc21; value = 97.4%
Structure (SMILES) = COc1ccc(Cl)cc1NC(=O)Nc1cc(C)nc2ccccc12; value = 101%
Structure (SMILES) = C[S+]([O-])c1ccc(-c2nc(-c3ccncc3)c(-c3ccc(F)cc3)[nH]2)cc1 (centres unmarked); value = 94%
Structure (SMILES) = O=c1cc(N2CCOCC2)oc2c1ccc1ccccc12; value = 98.3%
Structure (SMILES) = Cn1cc(/C=C2\C(=O)Nc3ccc(S(N)(=O)=O)cc32)c2ccccc21; value = 48.9%

Block 4 — target: His6 tag; method: AlphaScreen counter screen; tested at: concentration not given; quantity: inhibition
Compound = CCOc1ccc2nc(NC(=O)CCC(=O)O)sc2c1; value = 5.4%
Compound = COc1cc2nccc(Oc3ccc(NC(=O)NC4CC4)c(Cl)c3)c2cc1C(N)=O; value = 0.15%
Compound = COc1cc(C=C2SC(=O)NC2=O)cc(OC)c1O; value = 0.05%
Compound = O=C(O)CSc1nnc(-c2ccc(Cl)cc2)n1-c1ccccc1; value = 9.15%
Compound = CCN(CC)CCCCNc1ncc2cc(-c3cc(OC)cc(OC)c3)c(NC(=O)NC(C)(C)C)nc2n1; value = 2.75%
Compound = O=C(NNC(=O)c1c(O)c2ccccc2[nH]c1=O)c1cccc(Cl)c1; value = -1.2%
Compound = CCOC(=O)C1=C(CSc2ccccc2C(=O)O)NC(=O)NC1; value = 9.4%
Compound = COc1cccc2cc(-c3nc([C@H]4CC[C@H](C(=O)O)CC4)n4ncnc(N)c34)[nH]c12; value = 4.4%
Compound = Cn1cnc2c(F)c(Nc3ccc(Br)cc3F)c(C(=O)NOCCO)cc21; value = 5%
Compound = CC(=C(C#N)c1nc2ccccc2s1)c1ccc(Cl)cc1; value = 9.3%
Compound = CN1CCC(Nc2ncc3ncnc(Nc4ccc(F)c(Cl)c4)c3n2)CC1; value = -11%
Compound = Cc1cn([C@H]2C[C@H](N=[N+]=[N-])[C@@H](CO)O2)c(=O)[nH]c1=O; value = 1.55%
Compound = CCCOc1ccc(-c2csc3nc[nH]c(=O)c23)cc1; value = 7.65%
Compound = COc1ccnc(C[S+]([O-])c2nc3ccc(OC(F)F)cc3[nH]2)c1OC (centres unmarked); value = 5.5%
Compound = O=C(Cc1ccc(-c2ccc(OCCN3CCOCC3)cc2)cn1)NCc1ccccc1; value = 10.8%

Some of these lines once more (block 1):
SMILES = Cc1c(NC(=O)c2cc(C(N)=O)nc3cc(F)ccc23)c(C(F)(F)F)nn1Cc1ccc(C(C)(C)C)cc1; value = 11.9%
SMILES = O=C(Nc1cccnn1)N1CC(CC=Cc2cncc(Oc3ccc(C(F)(F)F)cn3)n2)C1; value = -9.59%
SMILES = CC(C)(O)c1cncc(-c2nc3ccc(F)cc3n2C2CC2)c1; value = -6.18%
SMILES = O=C1c2ccc(Nc3ccc(F)cc3F)cc2CCc2ccc(OC[C@H](O)CO)cc21; value = -7.71%
SMILES = CC(=O)Nc1nc(CN2CCC[C@H](Cc3cc(C)nc(C)c3)C2)cs1; value = -11.4%
SMILES = Cc1nc(N2CC[C@@H](O)C2)ncc1-c1cc(C(F)(F)F)cc2[nH]ncc12; value = -16.3%
